Measured values from different studies.
Numbered parts are unrelated; each lists some results of a single study. “And” joins repeats or separate records; there may be more than shown.
Chain of UniProt Q9Y4K4 (whole entry, looked up): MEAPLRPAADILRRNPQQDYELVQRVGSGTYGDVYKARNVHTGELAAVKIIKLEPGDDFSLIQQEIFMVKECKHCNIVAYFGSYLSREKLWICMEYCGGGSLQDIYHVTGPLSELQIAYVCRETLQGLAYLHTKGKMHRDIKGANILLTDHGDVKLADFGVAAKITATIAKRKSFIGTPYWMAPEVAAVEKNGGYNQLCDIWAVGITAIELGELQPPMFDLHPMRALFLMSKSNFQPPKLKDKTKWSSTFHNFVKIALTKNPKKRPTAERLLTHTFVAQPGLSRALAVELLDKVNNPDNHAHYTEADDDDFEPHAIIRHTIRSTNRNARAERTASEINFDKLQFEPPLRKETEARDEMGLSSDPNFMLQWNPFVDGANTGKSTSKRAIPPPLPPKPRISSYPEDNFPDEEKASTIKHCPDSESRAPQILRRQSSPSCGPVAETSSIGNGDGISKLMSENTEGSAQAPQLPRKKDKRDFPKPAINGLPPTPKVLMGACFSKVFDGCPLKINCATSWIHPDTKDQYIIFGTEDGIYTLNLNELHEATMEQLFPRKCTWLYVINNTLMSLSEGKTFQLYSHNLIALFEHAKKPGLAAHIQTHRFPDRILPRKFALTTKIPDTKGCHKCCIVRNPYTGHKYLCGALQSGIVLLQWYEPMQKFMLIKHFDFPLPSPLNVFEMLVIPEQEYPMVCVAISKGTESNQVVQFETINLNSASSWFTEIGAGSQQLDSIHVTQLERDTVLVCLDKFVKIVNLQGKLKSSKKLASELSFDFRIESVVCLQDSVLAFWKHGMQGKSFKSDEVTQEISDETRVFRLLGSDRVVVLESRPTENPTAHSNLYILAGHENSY
Chain of UniProt P16591 (whole entry, looked up): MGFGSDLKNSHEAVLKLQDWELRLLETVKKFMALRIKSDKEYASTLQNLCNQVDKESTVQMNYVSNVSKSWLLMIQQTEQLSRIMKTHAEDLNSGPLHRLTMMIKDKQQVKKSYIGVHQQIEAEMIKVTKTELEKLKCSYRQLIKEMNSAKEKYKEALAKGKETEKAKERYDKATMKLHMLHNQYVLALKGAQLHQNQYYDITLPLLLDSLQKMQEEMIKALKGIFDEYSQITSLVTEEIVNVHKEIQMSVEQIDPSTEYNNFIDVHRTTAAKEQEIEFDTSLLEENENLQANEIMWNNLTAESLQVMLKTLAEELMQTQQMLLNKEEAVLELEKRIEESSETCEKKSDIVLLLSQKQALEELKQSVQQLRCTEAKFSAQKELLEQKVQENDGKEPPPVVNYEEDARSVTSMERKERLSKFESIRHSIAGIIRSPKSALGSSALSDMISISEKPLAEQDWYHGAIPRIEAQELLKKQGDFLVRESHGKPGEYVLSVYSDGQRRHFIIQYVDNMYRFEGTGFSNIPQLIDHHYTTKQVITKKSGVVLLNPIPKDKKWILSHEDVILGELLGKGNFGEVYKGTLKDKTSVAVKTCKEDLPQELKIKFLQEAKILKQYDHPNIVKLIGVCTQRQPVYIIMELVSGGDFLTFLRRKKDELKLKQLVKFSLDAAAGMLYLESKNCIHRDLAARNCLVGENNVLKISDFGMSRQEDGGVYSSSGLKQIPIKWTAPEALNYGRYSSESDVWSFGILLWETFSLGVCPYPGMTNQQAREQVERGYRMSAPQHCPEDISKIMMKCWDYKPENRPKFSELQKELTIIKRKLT
Chain of UniProt Q9NRM7 (whole entry, looked up): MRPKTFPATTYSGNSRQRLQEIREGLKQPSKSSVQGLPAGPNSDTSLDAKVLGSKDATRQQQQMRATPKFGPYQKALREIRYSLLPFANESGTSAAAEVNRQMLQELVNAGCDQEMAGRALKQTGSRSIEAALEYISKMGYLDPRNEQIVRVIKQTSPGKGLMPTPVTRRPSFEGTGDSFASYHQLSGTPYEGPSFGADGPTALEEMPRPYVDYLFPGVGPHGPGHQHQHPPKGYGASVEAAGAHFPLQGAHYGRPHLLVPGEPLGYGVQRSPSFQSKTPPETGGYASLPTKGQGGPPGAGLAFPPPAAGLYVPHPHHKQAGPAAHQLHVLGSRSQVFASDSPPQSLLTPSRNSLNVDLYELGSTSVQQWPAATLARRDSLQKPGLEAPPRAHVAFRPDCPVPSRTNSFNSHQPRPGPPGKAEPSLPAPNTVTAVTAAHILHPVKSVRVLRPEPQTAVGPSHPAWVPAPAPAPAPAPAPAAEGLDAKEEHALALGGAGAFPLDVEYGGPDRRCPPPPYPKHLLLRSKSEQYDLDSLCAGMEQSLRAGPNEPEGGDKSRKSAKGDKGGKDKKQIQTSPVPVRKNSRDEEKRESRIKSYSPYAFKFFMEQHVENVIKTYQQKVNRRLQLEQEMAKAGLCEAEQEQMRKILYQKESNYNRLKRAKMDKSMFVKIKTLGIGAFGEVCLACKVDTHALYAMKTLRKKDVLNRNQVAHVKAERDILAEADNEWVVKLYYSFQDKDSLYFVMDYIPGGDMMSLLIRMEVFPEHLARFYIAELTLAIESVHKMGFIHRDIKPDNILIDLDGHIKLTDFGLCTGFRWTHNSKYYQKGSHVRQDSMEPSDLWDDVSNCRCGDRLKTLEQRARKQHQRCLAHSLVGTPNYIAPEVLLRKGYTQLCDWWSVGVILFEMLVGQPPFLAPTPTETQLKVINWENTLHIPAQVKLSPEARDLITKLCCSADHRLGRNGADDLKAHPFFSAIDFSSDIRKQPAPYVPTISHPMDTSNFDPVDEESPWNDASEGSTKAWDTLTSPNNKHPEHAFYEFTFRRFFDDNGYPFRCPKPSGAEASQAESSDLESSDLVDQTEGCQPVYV
Chain of UniProt Q16659 (whole entry, looked up): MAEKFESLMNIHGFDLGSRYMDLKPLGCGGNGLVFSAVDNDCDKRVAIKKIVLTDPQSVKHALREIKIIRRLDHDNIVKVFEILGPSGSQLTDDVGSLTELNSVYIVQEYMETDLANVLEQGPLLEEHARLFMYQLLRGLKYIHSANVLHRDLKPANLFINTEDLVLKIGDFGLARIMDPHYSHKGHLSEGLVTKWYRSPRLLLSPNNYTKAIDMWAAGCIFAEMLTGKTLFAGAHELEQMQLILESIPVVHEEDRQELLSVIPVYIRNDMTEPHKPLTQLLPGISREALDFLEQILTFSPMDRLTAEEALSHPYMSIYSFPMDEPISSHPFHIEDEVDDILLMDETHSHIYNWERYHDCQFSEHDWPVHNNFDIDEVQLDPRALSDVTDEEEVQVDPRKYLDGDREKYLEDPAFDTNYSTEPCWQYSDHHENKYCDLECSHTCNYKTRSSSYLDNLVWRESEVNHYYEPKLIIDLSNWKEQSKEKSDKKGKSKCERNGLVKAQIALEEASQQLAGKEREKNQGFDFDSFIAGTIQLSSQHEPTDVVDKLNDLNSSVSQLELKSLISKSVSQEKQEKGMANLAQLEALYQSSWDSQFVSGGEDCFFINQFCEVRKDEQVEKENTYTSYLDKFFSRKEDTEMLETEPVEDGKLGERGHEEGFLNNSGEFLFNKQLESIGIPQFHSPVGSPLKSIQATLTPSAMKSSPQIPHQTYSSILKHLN

Series 1
Compound: O=C(O)C1(O)Oc2ccccc2N(Cc2ccccc2)C1=O (stereo not drawn)
Organism: Arabidopsis thaliana
Strain: Col-0
| tested at | setting | hypocotyl length |
| --- | --- | --- |
| 12.5 µg/mL | seed germination, single repetition | 1.77 cm and 1.72 cm and 1.71 cm and 1.78 cm |
| 3.125 µg/mL | seed germination, repetition mean | 1.95 cm |
| 12.5 µg/mL | seed germination, repetition mean | 1.75 cm |
| 3.125 µg/mL | seed germination, single repetition | 1.89 cm and 2.04 cm and 2 cm and 1.98 cm and 2.01 cm |
| 50 µg/mL | seed germination, repetition mean | 1.45 cm |
| 25 µg/mL | seed germination, repetition mean | 1.5 cm |
| 100 µg/mL | seed germination, single repetition | 1.32 cm and 1.34 cm and 1.31 cm and 1.33 cm |
| 50 µg/mL | seed germination, single repetition | 1.45 cm and 1.47 cm and 1.43 cm and 1.46 cm |

Series 2
SMILES: Cc1ncsc1-c1ccc(C(CO)NC(=O)C2CC(O)CN2C(=O)C(C(C)C)n2cc(-c3ccc(COc4c(-c5c(C)c(F)cc6[nH]ncc56)c(C5CC5)cc5c(N6CC7CC6CN7)nc(OC6CCOCC6)nc45)cc3)nn2)cc1 (stereo not drawn)
| host | route | dose | time | body weight |
| --- | --- | --- | --- | --- |
| mouse, PK-59 xenograft |  | 1 mg/kg | day 4 | 24.6 g and 26 g and 25.4 g and 25 g and 30.3 g |
| mouse, lung LXFA sample A PDX |  | 30 mg/kg twice weekly | day 19 | 29.8 g and 28.6 g |
| mouse, GP5d xenograft |  | 30 mg/kg once weekly | day 7 | 29 g |
| mouse, PK-59 xenograft |  | 10 mg/kg | day 17 | 24.5 g and 24.1 g and 25.6 g |
| mouse, PK-59 xenograft | subcutaneous | 30 mg/kg once daily | day 6 | 18.3 g and 18.9 g and 19.1 g and 20.5 g |
| mouse, PK-59 xenograft |  | 0.3 mg/kg | day 0 | 23.6 g and 22.9 g |
| mouse, PK-59 xenograft |  | 3 mg/kg | day 10 | 25.1 g and 24.4 g and 25.4 g and 24.5 g |

Series 3
Cell line: MDA-MB-231
Read-out: cell viability
Technique: CellCounting-Lite
Tested at: 2.743 nM
Temperature: 37 °C
Reading: higher = more viable cells
| Compound | luminescence signal |
| --- | --- |
| CC(=O)N1CCN(c2nc(NCc3nc4cc(Cl)c(Cl)cc4[nH]3)c3ncn(C(C)C)c3n2)CC1 | 511000 a.u. and 490000 a.u. and 507000 a.u. |
| CCn1cnc2c(NCc3nc4cc(Cl)c(Cl)cc4[nH]3)nc(N3CCC(NC(C)=O)CC3)nc21 | 452000 a.u. and 485000 a.u. and 514000 a.u. |
| Cn1cc(-n2cnc3c(NCc4nc5cc(Cl)c(Cl)cc5[nH]4)nc(N4CCNCC4)nc32)cn1 | 485000 a.u. and 502000 a.u. |
| CC(=O)N1CCN(c2nc(NCc3nc4cc(Cl)c(Cl)cc4[nH]3)c3ncn(C)c3n2)CC1 | 328000 a.u. and 474000 a.u. and 456000 a.u. |
| CCn1cnc2c(NCc3nc4cc(Cl)c(Cl)cc4[nH]3)nc(N3CCN(C(=O)CNC(C)=O)CC3)nc21 | 521000 a.u. and 500000 a.u. and 515000 a.u. |
| CCCCOc1nc(NCc2nc3cc(Cl)c(Cl)cc3[nH]2)c2ncn(CC)c2n1 | 457000 a.u. and 556000 a.u. and 647000 a.u. |
| CCn1cnc2c(NCc3nc4cc(Cl)c(Cl)cc4[nH]3)nc(N3CCN(Cc4ccncc4)CC3)nc21 | 479000 a.u. and 472000 a.u. and 425000 a.u. |
| CCn1cnc2c(NCc3nc4cc(Cl)c(Cl)cc4[nH]3)nc(N3CCN(C(=O)c4ccccc4)CC3)nc21 | 493000 a.u. and 509000 a.u. and 430000 a.u. |
| CC(=O)N1CCN(c2nc(NCc3nc4cc(Cl)c(Cl)cc4[nH]3)c3ncn(-c4cnn(C)c4)c3n2)CC1 | 513000 a.u. and 545000 a.u. and 538000 a.u. |

Series 4
Structure (SMILES): Cc1nc(C)c(C=[N+]([O-])C(C)(C)C)nc1C
Technique: footprint test
Host: MPTP-induced Parkinson's disease mouse model
| dose | setting | corridor crossing time |
| --- | --- | --- |
| 10 mg/kg |  | 7.11 s and 6.26 s and 4.7 s and 5.6 s and 6 s and 3.97 s and 6.37 s and 6.88 s |
| 30 mg/kg | trial 3 | 4.66 s and 7.88 s and 3.95 s and 5.06 s and 4.63 s and 4.03 s and 7.03 s and 5.81 s |
| 10 mg/kg | trial 3 | 5.1 s and 5.97 s and 7.1 s and 5.87 s and 5.61 s and 4.7 s and 6.31 s |
| 10 mg/kg | trial 1 | 3.25 s and 4.99 s and 6.18 s and 5.47 s and 5.74 s and 6.07 s and 5.24 s |
| 90 mg/kg |  | 6.41 s and 5.45 s and 5.13 s and 5.26 s and 7.41 s and 5.15 s and 6.6 s |

Series 5
Structure (SMILES): C[C@@H]1CN(c2ccc(-c3cc(C(=O)NCCOCCOCCOCCOCCNC(=O)Cn4cc(-c5[nH]cc(C(=O)N[C@@H](CC(N)=O)c6ccc(F)c(Cl)c6)c5-c5ccc(Cl)cc5F)cn4)ccc3F)cc2NC(=O)c2c[nH]c(=O)cc2C(F)(F)F)C[C@H](C)N1C
Read-out: thermal unfolding
Technique: differential scanning fluorimetry
Tested at: 5.5 µM
Reading: higher = more unfolded
DCAF1: DDB1- and CUL4-associated factor 1 (DCAF1, Homo sapiens, UniProt Q9Y4B6)
Chain of UniProt Q9Y4B6 (whole entry, looked up): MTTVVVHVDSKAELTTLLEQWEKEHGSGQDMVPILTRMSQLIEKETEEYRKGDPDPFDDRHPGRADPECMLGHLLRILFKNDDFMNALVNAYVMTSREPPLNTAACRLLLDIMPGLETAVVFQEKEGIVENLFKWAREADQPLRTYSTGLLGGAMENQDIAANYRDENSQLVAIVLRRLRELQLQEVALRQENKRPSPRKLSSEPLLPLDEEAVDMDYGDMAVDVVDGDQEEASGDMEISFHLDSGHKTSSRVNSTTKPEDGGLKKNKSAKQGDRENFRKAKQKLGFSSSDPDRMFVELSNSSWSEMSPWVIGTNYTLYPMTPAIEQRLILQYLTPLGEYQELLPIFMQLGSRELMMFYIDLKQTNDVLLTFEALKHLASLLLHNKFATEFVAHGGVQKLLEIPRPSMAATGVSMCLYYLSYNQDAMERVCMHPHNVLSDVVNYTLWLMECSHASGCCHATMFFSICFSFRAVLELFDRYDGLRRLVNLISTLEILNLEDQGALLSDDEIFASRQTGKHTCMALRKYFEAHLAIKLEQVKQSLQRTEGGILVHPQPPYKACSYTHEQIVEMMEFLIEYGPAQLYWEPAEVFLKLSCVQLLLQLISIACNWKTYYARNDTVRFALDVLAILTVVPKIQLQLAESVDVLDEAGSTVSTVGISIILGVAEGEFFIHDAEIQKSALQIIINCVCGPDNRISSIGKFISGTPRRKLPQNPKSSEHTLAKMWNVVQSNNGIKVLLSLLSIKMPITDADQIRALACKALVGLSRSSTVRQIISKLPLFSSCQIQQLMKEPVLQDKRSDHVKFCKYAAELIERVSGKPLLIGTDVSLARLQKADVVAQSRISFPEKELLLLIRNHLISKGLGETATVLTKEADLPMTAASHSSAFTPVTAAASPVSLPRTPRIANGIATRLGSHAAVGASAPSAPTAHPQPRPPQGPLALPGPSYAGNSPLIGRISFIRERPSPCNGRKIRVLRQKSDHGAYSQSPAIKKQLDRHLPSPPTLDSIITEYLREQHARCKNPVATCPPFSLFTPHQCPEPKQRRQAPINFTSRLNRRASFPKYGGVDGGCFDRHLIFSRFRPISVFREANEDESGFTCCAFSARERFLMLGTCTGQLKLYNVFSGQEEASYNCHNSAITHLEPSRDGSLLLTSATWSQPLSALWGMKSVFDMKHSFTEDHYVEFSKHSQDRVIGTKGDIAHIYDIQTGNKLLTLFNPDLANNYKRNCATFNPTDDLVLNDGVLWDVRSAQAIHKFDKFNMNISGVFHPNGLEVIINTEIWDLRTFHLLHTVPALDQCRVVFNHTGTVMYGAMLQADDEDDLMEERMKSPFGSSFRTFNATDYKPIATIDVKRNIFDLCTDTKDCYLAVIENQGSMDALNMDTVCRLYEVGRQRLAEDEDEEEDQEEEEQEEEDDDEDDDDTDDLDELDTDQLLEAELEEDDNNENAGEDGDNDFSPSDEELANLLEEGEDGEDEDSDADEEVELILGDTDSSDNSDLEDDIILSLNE
WDR5: WD repeat-containing protein 5 (WDR5, Homo sapiens, UniProt P61964)
| target | temperature | SYPRO Orange fluorescence [a.u.] |
| --- | --- | --- |
| DCAF1 | 55.01 °C | 19500 |
| WDR5 | 28.6 °C | 14800 |
| WDR5 | 78.01 °C | 17300 |
| WDR5 | 37 °C | 14300 |
| DCAF1 | 66.21 °C | 56700 |
| DCAF1 | 71.61 °C | 52700 |
| DCAF1 | 77.21 °C | 46800 |
| DCAF1 | 90.01 °C | 35100 |
| WDR5 | 88.61 °C | 43600 |
| DCAF1 | 25.6 °C | 7510 |
| WDR5 | 32.8 °C | 14300 |

Series 6
SMILES: CC[C@@]1(c2ccccc2)C2=C(CC(C)(C)CC2=O)Nc2n[nH]cc21
Tested at: 1 µM
| target | read-out | technique | relative to | remaining binding |
| --- | --- | --- | --- | --- |
| Tyrosine-protein kinase Fer (FER, Homo sapiens, UniProt P16591) | binding | competition with immobilised ligand |  | 100% |
| Receptor-type tyrosine-protein kinase FLT3 (FLT3, Homo sapiens, UniProt P36888) | kinase binding | KINOMEscan | DMSO control | 100% |
| Tyrosine-protein kinase ZAP-70 (ZAP70, Homo sapiens, UniProt P43403) | kinase binding | KINOMEscan | DMSO control | 100% |
| Serine/threonine-protein kinase PAK 5 (PAK5, Homo sapiens, UniProt Q9P286) | kinase binding | KINOMEscan | DMSO control | 88% |
| Homeodomain-interacting protein kinase 1 (HIPK1, Homo sapiens, UniProt Q86Z02) | kinase binding | KINOMEscan | DMSO control | 77% |
| Serine/threonine-protein kinase LATS2 (LATS2, Homo sapiens, UniProt Q9NRM7) | binding | competition with immobilised ligand |  | 100% |
| Serine/threonine-protein kinase 33 (STK33, Homo sapiens, UniProt Q9BYT3) | kinase binding | KINOMEscan | DMSO control | 98% |
| Mitogen-activated protein kinase kinase kinase kinase 4 (MAP4K4, Homo sapiens, UniProt O95819) | binding | competition with immobilised ligand |  | 100% |
| Mitogen-activated protein kinase 6 (MAPK6, Homo sapiens, UniProt Q16659) | kinase binding | KINOMEscan | DMSO control | 100% |
| Ribosomal protein S6 kinase alpha-3, C-terminal kinase domain (RPS6KA3, Homo sapiens, UniProt P51812) | binding | competition with immobilised ligand |  | 55% |
| Serine/threonine-protein kinase 10 (STK10, Homo sapiens, UniProt O94804) | kinase binding | KINOMEscan | DMSO control | 100% |
| Macrophage colony-stimulating factor 1 receptor (CSF1R, Homo sapiens, UniProt P07333) | kinase binding | KINOMEscan | DMSO control | 100% |
| Phosphorylase b kinase gamma catalytic chain, liver/testis isoform (PHKG2, Homo sapiens, UniProt P15735) | binding | competition with immobilised ligand |  | 98% |
| Serine/threonine-protein kinase MARK1 (MARK1, Homo sapiens, UniProt Q9P0L2) | binding | competition with immobilised ligand |  | 93% |
| Tyrosine-protein kinase ABL1, phosphorylated (ABL1, Homo sapiens, UniProt P00519, F317L) | kinase binding | KINOMEscan | DMSO control | 100% |
| Mitogen-activated protein kinase kinase kinase kinase 5 (MAP4K5, Homo sapiens, UniProt Q9Y4K4) | binding | competition with immobilised ligand |  | 100% |
| Aurora kinase B (AURKB, Homo sapiens, UniProt Q96GD4) | binding | competition with immobilised ligand |  | 89% |
| Fibroblast growth factor receptor 4 (FGFR4, Homo sapiens, UniProt P22455) | binding | competition with immobilised ligand |  | 99% |
| Myosin light chain kinase, smooth muscle (MYLK, Homo sapiens, UniProt Q15746) | binding | competition with immobilised ligand |  | 100% |
| Mitogen-activated protein kinase 7 (MAPK7, Homo sapiens, UniProt Q13164) | binding | competition with immobilised ligand |  | 100% |
| STE20-like serine/threonine-protein kinase (SLK, Homo sapiens, UniProt Q9H2G2) | kinase binding | KINOMEscan | DMSO control | 100% |
| Casein kinase II subunit alpha' (CSNK2A2, Homo sapiens, UniProt P19784) | binding | competition with immobilised ligand |  | 100% |
| RAC-beta serine/threonine-protein kinase (AKT2, Homo sapiens, UniProt P31751) | kinase binding | KINOMEscan | DMSO control | 100% |
| Cyclin-dependent kinase 9 (CDK9, Homo sapiens, UniProt P50750) | kinase binding | KINOMEscan | DMSO control | 100% |
| Mast/stem cell growth factor receptor Kit (KIT, Homo sapiens, UniProt P10721, V559D) | binding | competition with immobilised ligand |  | 100% |

Series 7
Compound: CCN1/C(=C/C=C2\CCCC(/C=C/C3=[N+](CC)c4ccccc4C3(C)C)=C2NCCCCCCCCN2CCC(Nc3nc4ccccc4n3Cc3ccc(F)cc3)CC2)C(C)(C)c2ccccc21
Cell line: U-87 MG
Tested at: concentration not given
Relative to: DMSO
| measured | log2 fold change |
| --- | --- |
| TNFSF9 mRNA | 2.05 |
| ZNF684 mRNA | -0.997 |
| KLF2 mRNA | -1.02 |
| ITPRIPL1 mRNA | -1.23 |
| ID1 mRNA | -2.33 |
| CRHBP mRNA | 0.993 |
| DNPH1 mRNA | -0.946 |
| STX3 mRNA | 1.26 |
| LYPD6 mRNA | -1.97 |
| SRC mRNA | 0.886 |
| RBM7 mRNA | 0.862 |
| CDS1 mRNA | -1.35 |
| UHRF1 mRNA | -2.59 |
| NAAA mRNA | -0.88 |
| HTR2A mRNA | -4.01 |
| RAB38 mRNA | 2.57 |

Further values, each from its own experiment
| Structure (SMILES) | tested on | test | system | conditions | scale | endpoint | value |
| --- | --- | --- | --- | --- | --- | --- | --- |
| Cc1ccc(O)c(C)c1-c1cnc2[nH]c(-c3cnc(N)nc3)cc2c1C#N | biomarker-positive cells (CCNE1 amp, FBXW7 mut, PPP2R1A loss) | cell growth |  | 168 h, average |  | IC50 | 0.503 µM |
| COCC1CC2C(CCC3(C)C(O)CCC23)c2ccc(O)cc21 (stereo not drawn) | A549 | DNA microarray, measured: CCL22 |  | concentration not given | relative to: untreated A549 cells | expression ratio | 1 |
| Cc1ccc(O)c(C)c1-c1cnc2[nH]c(-c3cnc(N4CCC(CN5CCN(c6c(F)cc(NC7CCC(=O)NC7=O)cc6F)CC5)CC4)nc3)cc2c1C#N (racemic) | HCC1569 | in-cell western, measured: CDK1 phospho-Thr14 |  | 1000 nM |  | pCDK1 (Thr14) level | 102% |
| COCC1CC2C(CCC3C(O)CCC32)c2ccc(O)cc21 (stereo not drawn) | SK-OV-3 | DNA microarray, measured: KIF20A |  | 25 µM | relative to: untreated cells | mRNA level ratio | 0.966 and 0.965 and 0.937 and 0.953 |
| Cc1ccc(O)c(C)c1-c1cnc2[nH]c(-c3cnc(N4CCC(CN5CCN(c6ccc7c(c6)C(=O)N(C6CCC(=O)NC6=O)C7=O)CC5)CC4)nc3)cc2c1C#N (stereo not drawn) |  |  | CD-1 mouse | oral, 10 mg/kg, 24 h |  | plasma concentration | not detected |
| Cc1ccc(O)c(C)c1-c1cnc2[nH]c(-c3cnc(N4CCC5(CC4)CC(CN4CCN(c6ccc(NC7CCC(=O)NC7=O)cc6F)CC4)C5)nc3)cc2c1C#N (stereo not drawn) |  |  | CD-1 mouse, female, plasma | oral, 20 mg/kg |  | oral bioavailability | 32.2% |
